Published values of several laboratories.
Lines come from different studies, so protocols differ. “And” joins repeats or separate records; there may be more than shown.
CDK1 with cyclin E1: Cyclin-dependent kinase 1, with cyclin E1 (CDK1, Homo sapiens, UniProt P06493)
Chain of UniProt P06493 (whole entry, looked up): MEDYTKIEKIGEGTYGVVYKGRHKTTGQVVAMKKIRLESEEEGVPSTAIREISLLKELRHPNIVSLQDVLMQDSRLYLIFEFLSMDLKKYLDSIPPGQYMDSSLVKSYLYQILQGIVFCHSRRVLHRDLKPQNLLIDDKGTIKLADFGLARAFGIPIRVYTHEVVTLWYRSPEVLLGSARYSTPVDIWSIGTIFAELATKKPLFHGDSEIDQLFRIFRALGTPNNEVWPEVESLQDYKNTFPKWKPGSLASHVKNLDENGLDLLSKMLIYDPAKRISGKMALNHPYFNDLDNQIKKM
CDK1 with cyclin B: Cyclin-dependent kinase 1, with cyclin B (CDK1, Homo sapiens, UniProt P06493)
CDK1: Cyclin-dependent kinase 1 (CDK1, Homo sapiens, UniProt P06493)

The inhibition of `CCn1cc(C(=O)O)c(=O)c2c(N)c(F)c(NC3CCCCC3)cc21` is reported as 11.7% (CDK1 with cyclin E1; kinase activity; 0.1 µM, with: ATP at Km).
For `COc1c(OCCCN2CCOCC2)ccc2c1N=C(NC(=O)c1cnc(N)nc1)N1CCN=C21`, the remaining activity was 103% (CDK1 with cyclin B; kinase activity, inhibitor; 1 µM; relative to: untreated control).
The remaining activity of `COCC12C(=O)NC3C4(C(OC)CC1O)C1CC5(O)C(OC)C(O)C(OC(C)=O)(C1C5OC(=O)c1ccccc1)C3(O)C(OC)C24` (centres unmarked) is reported as 75% and 67% (Cyclin-dependent kinase 1, with cyclin B1 (CDK1, Homo sapiens, UniProt P06493); kinase activity, inhibitor, ProQinase kinase profiling; 25 µM; relative to: control).
The inhibition of `Cc1cccc(O[C@H]2CCC[C@@H](C(C)CNCc3ccncc3)C2)c1` (relative stereo) is reported as 2% (CDK1; enzyme activity, inhibitor; 1 µM).
For `Cc1nn(C)c(C)c1/C=C/C(=O)N1CCC[C@H](Cc2ccc(Nc3ccccn3)nn2)C1`, “activity vs control” read 93% (CDK1; enzyme activity, inhibitor, ADP detection; 1 µM).
For `NC(=O)C[C@H]1CCc2sc3ncnc(O[C@H]4CC[C@H](N5CCOCC5)CC4)c3c21`, the inhibition was 17% (CDK1 with cyclin B; enzyme activity, inhibitor; 10 µM).
`CN1CCN(Cc2ccc(-c3ccc(CO[C@H]4CCC[C@@H]4NC(=O)c4cc(-c5cnn(C)c5)cnc4N)cc3)cc2)CC1` gave an inhibition of 1% (CDK1 with cyclin B; enzyme activity, inhibitor; 0.1 µM).
For `CN1C[C@@H](c2c[nH]c3cc(Br)ccc23)NC[C@@H]1c1c[nH]c2cc(Br)ccc12`, the remaining activity was 102% (CDK1 with cyclin E1; enzyme activity, inhibitor; 10 µM).
Under “log2 LFQ intensity”, `N[C@H]1CC[C@H](Nc2nccc(-c3cccnc3Oc3ccc(NC(=O)NC4CC4)c4ccccc34)n2)CC1` is recorded as 26 and 25.8 and 25.6 (CDK1; kinobead competition pulldown; HEK293/HCT116 lysate mixture; 10 µM, 1 h, 4 °C; lower = stronger competition).
The inhibition of `Cc1cc(C)nc(NS(=O)(=O)c2ccc(NC(=O)CCCOc3ccc(C(C)(C)C)cc3)cc2)n1` is reported as 61.5% (CDK1; enzyme activity, inhibitor, ADP detection; 10 µM).
With `C=CC(=O)Nc1cccc(-c2cnc3[nH]cc(C(=O)NC(C)(C)C)c3n2)c1` the inhibition was 39% and 36% (CDK1; kinase activity; 0.1 µM).
`CN1CC[C@@H](COc2cnc(C#N)cc2-c2ccn3nc(NC(=O)C4CC4)cc3c2)C1` gave an inhibition of 13% (CDK1 with cyclin B; enzyme activity, inhibitor; 1 µM).
`NC(=O)[C@@H](O)C[C@H]1CCc2sc3ncnc(O[C@H]4CC[C@H](N5CCOCC5)CC4)c3c21` gave an inhibition of 28% (Cyclin-dependent kinase 1, with cyclin E (CDK1, Homo sapiens, UniProt P06493); enzyme activity, inhibitor; 10 µM).
`COc1ccc(C(=O)/C=C/c2ccccc2-c2c[nH]c3ccc(C#N)cc23)c(O)c1` has an inhibition of 5% (CDK1 with cyclin B; enzyme activity, inhibitor; 20 µM).
